Values quoted from earlier work that unrelated publications cite.
Protocols differ between the studies behind these lines. ± marks the error that the study gave. Values after ≈ are worked out from the molar mass of the structure shown.
Matrix protein 2: Matrix protein 2 (Influenza A virus, UniProt P0DOF5)
Chain of UniProt P0DOF5 (whole entry, looked up): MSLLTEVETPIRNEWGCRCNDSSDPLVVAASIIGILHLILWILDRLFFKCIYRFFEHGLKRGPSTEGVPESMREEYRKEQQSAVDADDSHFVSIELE
Chain of UniProt P31390 (whole entry, looked up): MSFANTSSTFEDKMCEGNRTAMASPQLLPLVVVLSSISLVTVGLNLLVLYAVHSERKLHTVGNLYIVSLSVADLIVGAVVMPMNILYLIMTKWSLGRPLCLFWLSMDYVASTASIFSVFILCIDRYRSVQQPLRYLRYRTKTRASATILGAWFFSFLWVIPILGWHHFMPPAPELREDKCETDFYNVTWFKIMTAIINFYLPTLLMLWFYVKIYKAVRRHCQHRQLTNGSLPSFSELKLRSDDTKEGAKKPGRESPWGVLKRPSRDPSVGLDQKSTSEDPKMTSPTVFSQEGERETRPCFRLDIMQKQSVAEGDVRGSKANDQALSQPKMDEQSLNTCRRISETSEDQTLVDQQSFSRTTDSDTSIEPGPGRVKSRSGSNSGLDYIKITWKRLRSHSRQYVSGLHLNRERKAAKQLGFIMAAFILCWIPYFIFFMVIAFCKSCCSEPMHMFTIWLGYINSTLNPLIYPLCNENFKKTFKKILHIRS
Chain of UniProt P41143 (whole entry, looked up): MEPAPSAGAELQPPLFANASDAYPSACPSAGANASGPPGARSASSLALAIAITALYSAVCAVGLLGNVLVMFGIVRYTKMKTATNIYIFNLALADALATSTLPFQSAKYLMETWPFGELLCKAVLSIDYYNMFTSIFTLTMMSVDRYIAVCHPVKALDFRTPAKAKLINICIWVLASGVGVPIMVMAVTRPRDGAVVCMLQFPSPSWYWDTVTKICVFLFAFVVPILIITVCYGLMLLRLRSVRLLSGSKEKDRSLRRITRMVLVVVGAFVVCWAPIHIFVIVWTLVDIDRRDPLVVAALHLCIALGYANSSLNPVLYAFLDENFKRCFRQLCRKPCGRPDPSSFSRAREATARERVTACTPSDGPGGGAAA

`CNC1C(O)C(NC)C2OC3(O)C(OC(C)C[C@H]3NC(=O)Cc3cc(Cl)ccn3)OC2C1O.Cl.Cl` (some centres unmarked) has a half-life of 2.6 h (human liver microsomes).
With `C[C@]12CC[C@H](OC(=O)NC3CCNCC3)C[C@H]1CC[C@@H]1[C@@H]2CC[C@]2(C)[C@@H](c3ccc(=O)oc3)CC[C@]12O` the solubility was 2500 µg/mL (≈ 4.88 mM).
For `CC[C@H](C)[C@H](NC(=O)[C@H](N)Cc1ccc(O)cc1)C(=O)N[C@H]1CSSC[C@@H](C(=O)N(C)[C@H](C(N)=O)[C@@H](C)CC)NC(=O)[C@H](CCCNC(=N)N)NC(=O)[C@H](Cc2c[nH]cn2)NC(=O)[C@H](C)NC(=O)CN(C)C(=O)[C@H](Cc2c[nH]c3ccccc23)NC(=O)[C@H](CC(=O)O)NC(=O)[C@H](CCC(N)=O)NC(=O)[C@H](Cc2cn(C)c3ccccc23)NC(=O)[C@H](C(C)C)NC1=O`, the plasma half-life was 12 h.
The half-life of `CN1CCN([C@@H](c2ccccc2)c2ccc(Cl)cc2)CC1` is reported as 2 h (mouse, plasma; intraperitoneal, 50 mg/kg).
`CCCC(C(=O)c1ccccc1)N1CCCC1` (centres unmarked) — result for “duration of psychosis”: ≤ 6 days (human; concentration not given).
`O=C(OCC[18F])C1C2CCC(CC1c1ccc(/C=C\I)cc1)N2` (centres unmarked): “time to peak uptake” > 75 min (SERT; HRRT PET; awake rhesus monkey, midbrain).
With `CC1=C(C)C(=O)OC(C(C)(O)C2(O)CCC3(O)C4CC5OC56CC=CC(=O)C6(C)C4CCC32C)C1` (centres unmarked) the IC50 was 3.64 µM (Hep3B; cell growth).
`CNC1C(O)C(NC)C2OC3(O)C(OC(C)C[C@H]3NC(=O)Cc3cscn3)OC2C1O.Cl.Cl` (some centres unmarked) gave a half-life of 18.5 h (human liver microsomes).
With `COC[C@@H](NC(C)=O)C(=O)NCc1ccc(OCc2ccccc2)cc1` the TD50 was > 250 mg/kg (behavioural toxicity; rat; oral).
`CCCCCCCC(=O)OC[C@H](NC(=O)[C@H](CO)NC(=O)CN)C(=O)N[C@@H](Cc1ccccc1)C(=O)N[C@@H](CC(C)C)C(=O)N[C@@H](CO)C(=O)N1CCC[C@H]1C(=O)N[C@@H](CCC(=O)O)C(=O)N[C@@H](Cc1cnc[nH]1)C(=O)N[C@@H](CCC(N)=O)C(=O)N[C@@H](CCCNC(=N)N)C(=O)N[C@H](C(=O)N[C@@H](CCC(N)=O)C(=O)N[C@@H](CCC(N)=O)C(=O)N[C@@H](CCCNC(=N)N)C(=O)N[C@@H](CCCCN)C(=O)N[C@@H](CCC(=O)O)C(=O)N[C@@H](CO)C(=O)N[C@@H](CCCCN)C(=O)N[C@@H](CCCCN)C(=O)N1CCC[C@H]1C(=O)N1CCC[C@H]1C(=O)N[C@@H](C)C(=O)N[C@@H](CCCCN)C(=O)N[C@@H](CC(C)C)C(=O)N[C@@H](CCC(N)=O)C(=O)N1CCC[C@H]1C(=O)N[C@@H](CCCNC(=N)N)C(=O)O)C(C)C` has a half-life of 0.15 to 0.217 h (intravenous bolus, 1 and 5 µg/kg).
`CN1c2ccc(OC(=O)Nc3ccccc3)cc2[C@@]2(C)CCNC12` (single isomer, unassigned; (+)) gave a Cmax of 25.6 ng/mL (human, plasma; 40 mg Posiphen).
`COc1ccc(C2=[N+]([O-])c3ccccc3N3CCN=C23)cc1` gave a logP of 1.25 (octanol/PBS).
For `C1CC2C3C4C5CCC4C24CNCC54C13`, the inhibition was 40 ± 1% (Matrix protein 2; inhibitor; 100 µM).
The intact compound of `N=C(N)NCCC[C@@H]1NC(=O)[C@H](CCCCNC(=O)CCOCCOCCOCCOCCNC(=O)CC[C@H](NC(=O)CCOCCOCCOCCOCCNC(=O)c2ccc(NN)nc2)C(=O)NCCOCCOCCOCCOCCC(=O)NCCCC[C@@H]2NC(=O)[C@@H](Cc3ccccc3)NC(=O)[C@H](CC(=O)O)NC(=O)CNC(=O)[C@H](CCCNC(=N)N)NC2=O)NC(=O)[C@@H](Cc2ccccc2)NC(=O)[C@H](CC(=O)O)NC(=O)CNC1=O` [technetium-99m labelled] is reported as 70% (athymic nude mouse, feces; dose not given, 2 h).
`NC(=O)N[C@H]1CC[C@H](CCN2CCN(c3cccc(Cl)c3Cl)CC2)CC1` gave a half-life of 1 to 3 weeks (human schizophrenia patients; after cariprazine discontinuation).
For `CC[C@H](C)[C@H](NC(=O)[C@H](CCCCN)NC(=O)[C@H](CCCCN)NC(=O)[C@H](Cc1ccccc1)NC(=O)[C@H](CC(C)C)NC(=O)[C@H](CCCCN)NC(=O)[C@H](Cc1c[nH]c2ccccc12)NC(=O)[C@H](CCCCN)NC(C)=O)C(=O)NCC(=O)N[C@@H](C)C(=O)N[C@H](C(=O)N[C@@H](CC(C)C)C(=O)N[C@@H](CCCCN)C(=O)N[C@H](C(=O)N[C@@H](CC(C)C)C(N)=O)C(C)C)C(C)C`, the alpha-helical content was ~85% (trifluoroethanol).
`CC[C@H](C)[C@H](NC(=O)[C@H](CCCCN)NC(=O)[C@H](CCCCN)NC(=O)[C@H](C)NC(=O)[C@@H](NC(=O)[C@H](C)NC(=O)[C@H](CC(C)C)NC(=O)[C@H](CC(C)C)NC(=O)[C@H](C)NC(=O)[C@H](CCCCN)NC(=O)[C@H](CC(C)C)NC(=O)[C@H](CC(N)=O)NC(=O)[C@@H](N)CC(C)C)C(C)C)C(=O)N[C@@H](CC(C)C)C(N)=O` has an MIC of 100 µM (≈ 151 µg/mL) (Candida albicans; ATCC 10231).
The clearance of `CN[C@H](CC(C)C)C(=O)N[C@H]1C(=O)N[C@@H](CC(N)=O)C(=O)N[C@H]2C(=O)N[C@H]3C(=O)N[C@H](C(=O)N[C@H](C(=O)NCCCNC(=N)N)c4cc(O)cc(O)c4-c4cc3ccc4O)[C@H](O)c3ccc(c(Cl)c3)Oc3cc2cc(c3O[C@@H]2O[C@H](CO)[C@@H](O)[C@H](O)[C@H]2O[C@H]2C[C@](C)(NCc3ccc(-c4ccc(Cl)cc4)cc3)[C@H](O)[C@H](C)O2)Oc2ccc(cc2Cl)[C@H]1O` is reported as 1.5 mL/min/kg (mouse; intravenous, 50 mg/kg, maximum tolerated dose).
`C=C(C)C12OC3(c4ccccc4)OC1C1C4OC4(CO)C(O)C4(O)C(=O)C(C)=CC4C1(O3)C(C)C2OC(=O)c1ccccc1` (centres unmarked) — result for “body weight loss”: ~13% (mouse 22Rv1 and PDX models; intraperitoneal, 0.5 mg/kg 5 times weekly, early dosing stage).
With `CN(CCCN)[C@H](C(=O)O)[C@H](O[C@@H]1O[C@H](CN)[C@@H](O)[C@H]1O)[C@H]1O[C@@H](n2ccc(=O)[nH]c2=O)[C@H](O)[C@@H]1O` the LD50 was > 500 mg/kg (mouse; intravenous).
Under “plasma level ratio”, `CCCCCc1cc(O)c2c(c1)OC(C)(C)C1CCC(C(=O)OC3OC(C(=O)O)C(O)C(O)C3O)=CC21` (centres unmarked) is recorded as ~7.6 fold (human, plasma; inhalation of cannabis; relative to: THC).
For `CN[C@H](CC(C)C)C(=O)N[C@H]1C(=O)N[C@@H](CC(N)=O)C(=O)N[C@H]2C(=O)N[C@H]3C(=O)N[C@H](C(=O)N[C@H](C(=O)O)c4cc(O)cc(O)c4-c4cc3ccc4O)[C@H](O)c3ccc(c(Cl)c3)Oc3cc2cc(c3O[C@@H]2O[C@H](CO)[C@@H](O)[C@H](O)[C@H]2O[C@H]2C[C@](C)(NCc3ccc(-c4ccc(Cl)cc4)cc3)[C@H](O)[C@H](C)O2)Oc2ccc(cc2Cl)[C@H]1O`, the clearance was 1.23 mL/min/kg (mouse; intravenous, 10 mg/kg).
`C=C(C)[C@@H]1CCC(C(=O)O)=C[C@H]1c1c(O)cc(CCCCC)cc1O` — result for “decrease in Cmax”: 13% (healthy volunteers; dose not given, steady state, together with: stiripentol).
`COc1cc(C)c(S(=O)(=O)NC(=N)NCCC[C@@H](NC(=O)[C@@H](CCC(N)=O)NC(=O)[C@@H](Cc2c[nH]c3ccccc23)NC(=O)[C@@H](CCCCN)NC(=O)[C@@H](Cc2ccccc2)NC(=O)[C@H](N)Cc2ccccc2)C(=O)N[C@H](CCCNC(=N)N)C(=O)N[C@H](CCCNC(=N)N)C(N)=O)c(C)c1C`: toxicity “not toxic” (mouse; oral, NG).
`CC1=C(C)C(=O)OC(C(C)(O)C2(O)CCC3(O)C4CC5OC56C(O)C=CC(=O)C6(C)C4CCC32C)C1` (centres unmarked) gave an IC50 of 1.06 µM (Hep G2; cell growth).
`CC1(O)CC23CC(O)C4(O)C(C5OC5C4(C)C)C(C)(O)C2CCC1C3O` (centres unmarked) has an oral bioavailability of 73.6% (mouse; oral).
The half-life of `[Mn+2].[NH3+]CCN1CCN(CC(=O)[O-])Cc2cccc(n2)CN(CC(=O)[O-])CC1` is reported as 54.4 h (pH 6.0, 37 °C, together with: 25 mM Zn(II)).
`CC[C@H](C)C(=O)N1CCC(NC(=O)Nc2ccc(OC(F)(F)F)c(F)c2)CC1` has an oral bioavailability of ~60% (dog; oral).
The Ki of `CCOC(=O)C1C(OC(c2ccc(Cl)cc2)c2ccc(Cl)cc2)CC2CCC1N2C` (single isomer, unassigned) is reported as 37.6 ± 2.99 µM (Hrh1 (Rattus norvegicus, UniProt P31390)).
Under tolerability, `O=C(N[C@@H](Cc1coc2ccccc12)B(O)O)[C@@H]1C[C@H]2CC[C@@H]1O2` is recorded as “not toxic” (dog; oral, 10 mg/kg once daily, repeated dosing).
`OC1C=Cc2c(cc3ccc4cccc5c6ccccc6c2c3c45)C1O` (centres unmarked) has an intrinsic clearance of 11600 µL/min/mg (mouse liver microsomes; phase I metabolism).
For `CC[C@@H]1CN2CCc3c([nH]c4cccc(OC)c34)[C@@H]2C[C@@H]1/C(=C\OC)C(=O)OC`, the LD50 was > 400 mg/kg (mouse; oral).
The brain clearance of `COc1ccc(CCN2CCN(C/C=C/[125I])CC2)cc1OC` is reported as 75% (mouse, whole brain; 15 to 120 min).
`CC(C)[C@@H]1CC[C@@H](C)C[C@H]1C(=O)NCCc1ccccn1` gave an NOAEL of 10 mg/kg/day (rat Sprague-Dawley; diet, 28 days).
The lethal dose of `O=C([O][Ti+2][O]C(=O)c1ccc(P(c2ccccc2)c2ccccc2)cc1)c1ccc(P(c2ccccc2)c2ccccc2)cc1.[Cl][Au].[Cl][Au].c1cc[cH-]c1.c1cc[cH-]c1` is reported as 15 mg/kg/day (C57BL/6 mouse).
`CC(C)[C@@H](CN1CC[C@@](C)(c2cccc(C(N)=O)c2)[C@@H](C)C1)NC(=O)[C@H]1Cc2ccc(O)cc2CN1` has a Ke of 478 ± 75 nM (OPRD1 (Homo sapiens, UniProt P41143); antagonist; together with: DPDPE).
With `NC12C3CCC4C3C3C(CCC31)C42` the inhibition was 4.8 ± 2.8% (Matrix protein 2; inhibitor; 100 µM).
For `COc1cc2c3cc1Oc1c(OC)c(OC)cc4c1[C@@H](Cc1ccc(O)c(c1)Oc1ccc(cc1)C[C@@H]3N(C)CC2)N(C)CC4`, the LD50 was 1700 ± 200 mg/kg (mouse).
